Experimental data from different studies.
Each numbered part is a random draw from the data of one study; scales do not carry over between parts. Changes are numbered by the printed parent chain.

Series 1 — method: competition protein-binding microarray; molecule type: double-stranded DNA, one strand shown; sample: in vitro; tested at: 2 µM; added: Pho4 competitor, 0.05 µM; reading: higher = stronger binding; constant ends, left off below: … GTCTTGATTCGCTTGACGCTGCTG
Target: Centromere-binding protein 1, full length, His-tagged (CBF1, Saccharomyces cerevisiae, UniProt P17106, residues 1-351)
UniProt P17106, sequence (whole entry, looked up): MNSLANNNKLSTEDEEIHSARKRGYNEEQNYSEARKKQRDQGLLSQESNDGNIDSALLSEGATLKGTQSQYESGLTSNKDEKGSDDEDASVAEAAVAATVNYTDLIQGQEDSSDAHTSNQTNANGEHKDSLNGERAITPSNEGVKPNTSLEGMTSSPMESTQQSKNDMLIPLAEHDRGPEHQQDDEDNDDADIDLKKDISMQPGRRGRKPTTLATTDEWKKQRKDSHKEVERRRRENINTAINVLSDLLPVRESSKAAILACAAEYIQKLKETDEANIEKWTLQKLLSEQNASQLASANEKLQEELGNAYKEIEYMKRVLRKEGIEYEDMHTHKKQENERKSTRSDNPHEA
Notes: whole 60-bp probe, lowest competitor level
Strand | fluorescence intensity [a.u.]
TATTACGCCTGCAACCCCGTGCTAAGCTAGAATGTC | 211
GGATAGGGTCTTTGGCATGTGCGGTGCTTACCCGGA | 79.1
ATATAGACAAAAGTGGCCGTGACGGGTAAAAAGGAT | 139
TTTTTCCTAACTTGCGACATGACAGAGCTTAAGGAC | 75.2
CCCTCCTCTCAGTCCCACGTGGGCGCTGGCGGCTTT | 707
TAATACGGGCATGAACGCGTGCAAACAACTCGTCCT | 86
AGTCCTTTTCTTATGCTCGTGGTGATTGTCAGTCTT | 93.7
CGGGGTTAAGTTTTTCACGTGGGCTGCTTGCAGCAG | 548
AGGCGGGTATTCCACCTGGTGTGTTCAACATTGTAT | 64
TAAATAGTTTTTATATGTTTTTAGTAAAAGAAGAAA | 91.2
CAAGTCAAGTTTCAACACGTAGTCTTGAACAGTGGG | 68.2
TGTGCGTTATGCTTCCATGTGACGCTACATCTATTG | 414
GAATCAAAGGGTTTATCCGTGTCTGAACGCAATGTG | 69.9
CATTGAAAAGCAAGTGACGTGACTCGAACTTGAAAG | 201
AAAGCGGTAATTTGTGCAGTGGGTGCAGATATCTAT | 87.8
TGCGCAACAACTTGTCACATAACTTTATGTCTAGAA | 73.4
CTTTTCAAGAATGCAAACGTGAGGTTGGCGCGCCCT | 73.3

Series 2 — method: protein-binding microarray; molecule type: double-stranded DNA, one strand shown; sample: in vitro; tested at: 940 nM top; notes: 60-bp whole probe; added: salmon DNA 0.4 mg/ml; reference: random background probes; reading: higher = stronger binding; constant ends, left off below: GCCTAGCAC … GTCTTGATTCGCTTGACGCTGCTG
Target: Interferon regulatory factor 5, full length, phosphomimetic (IRF5, Homo sapiens, UniProt Q13568-2, residues 1-514, S451D/S453D/S456D/S462D)
Strand | fitted relative affinity [z-score]
TCAATTTTCATTATTGCACTGTGCTAG | 1.13
TTAGGTTTCGGACCGGGTTAGTGCTAG | 7.16
GACGAACTGACACTGGAGACGTGCTAG | -0.672
TCAAGTATGACTCTGCCACTGTGCTAG | -0.154
TCACATTCACCTGTCGTACTGTGCTAG | 0.714
GACGGAGTGGGGACTGGGGACGTGCTA | -0.129
GAGGATCTCAGACTGGAGACGTGCTAG | -0.588
GACGGTATCCTTCTCCTGAGGTGCTAG | 0.251
TTAGATATCGGGAATGGATTAGTGCTA | -0.0495
GACGATACCGGGACTGGAGACGTGCTA | 0.244
ATGGAAATCTCAATGGGTTAGTGCTAG | 0.00439
CTAGGACTGCTTATCCTTTAGTGCTAG | -0.359
TTAGGGTTCGGGACTGGGTTAGTGCTA | -0.263
TTAGGTCTTCTACTGCTTTAGTGCTAG | 0.125
TTAGGTATCAACTTTCGGTTAGTGCTA | 3.76
CAAGTTACCCACCTCAGGTAGTGCTAG | 0.155

Series 3 — method: RNA Bind-n-Seq; molecule type: RNA; sample: in vitro; tested at: not given; reference: input RNA pool; reading: higher = stronger binding
Target: RING finger protein unkempt homolog, zinc fingers 1-6, GST-SBP tag (UNK, Homo sapiens, UniProt Q9C0B0, residues 30-357)
Notes: RNA with constant flanks, human-mouse chimeric sites, ends assumed
Constant ends, left off below: GGGAGUUCUACAGUCCGACGAUC … CAACAGAGGAUUGAGCAUCA
Target sequence (chain): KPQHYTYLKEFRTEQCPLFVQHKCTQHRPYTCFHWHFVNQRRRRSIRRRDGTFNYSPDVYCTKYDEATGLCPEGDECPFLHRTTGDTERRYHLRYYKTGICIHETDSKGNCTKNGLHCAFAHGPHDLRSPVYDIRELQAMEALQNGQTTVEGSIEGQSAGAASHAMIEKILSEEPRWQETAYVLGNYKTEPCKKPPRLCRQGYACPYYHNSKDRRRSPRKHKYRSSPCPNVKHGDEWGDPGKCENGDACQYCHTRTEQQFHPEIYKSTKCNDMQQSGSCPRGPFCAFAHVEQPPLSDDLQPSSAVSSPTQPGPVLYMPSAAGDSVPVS
Strand | bound/input enrichment
UUUGUUUGUAACUUAUCUCUGUAAAAGUCCCCCCCCCACUGUCAAAAAAAUAUGCAUGUAUAGUAAUUAGGACUUCAUUCCUCCAUGUUUUCUUCCCUUAUCUUACUGUCAUUGUCCUUA | 1.46 ratio
GGGGAGAAACCUUACGAAUGCGUUCAGUGUGGGAAAUCGUAUAGUCAGAGCUCAAACCUCUUCAGACAUCAGAGACGACACAAUGCAGAAAAACUUUUGAAUGUUGUGAAGGUUUAAGAA | 0.511 ratio
CUCAGAGACGUGGCAUAUCAGUAUGUGAAAAAGGGGUCUCGUAUAUUUGUGGAAGGGAAAGUGGACUAUGGCGAGUACAUGGAUAAAAACAAUGUGAGGCGGCAAGCAACAACAAUCAUA | 0.304 ratio
GUGACUGGUGUUAAGAUUUCCCCUCAGAAAAGAACUGCAGUAGUCACCAUAAUUCCAUCUGUGGUGAGUGCCAGUCAGAUUGUGGAGCUGGUUCCAGACCUCAGUUUAGACAUGGGAACU | 0.208 ratio
AUUCCGAUUAUGGACACCGGUGAAAACCCAGAGGUUCCCUUCCCCCGGGACAUGAUUGACUUAGAGGCCAAUUUCGAGAAGAUUGAAAAUGAACUGAAGGAAAUCAACACUAACCAGGAA | 0.0831 ratio
GCCACCAGAUCCCAGAAACAUGACCCUUGCUGCCUACAAAGAGAAGAUGAAGGAGCUCCCACUAGUGUCCUUGUUCUGCUCUUGCUUCCUGGCCGAUCCCCUGAAUAAGUCGUCCUACAA | 0.544 ratio
UACUCAACUUUCUUGCCACAUUUUGAAUUCCAAGACAUUAUUCCUCCAGAUGACUUUCUAACUAGUGAUGAAGAGCAAGAUUUGGUUUUAUUUGGAACUAUGAGAGGACAAGUUGUUGGA | 0.264 ratio

Series 4 — method: protein binding microarray; molecule type: double-stranded DNA, one strand shown; sample: in vitro; tested at: not given; reference: not given; reading: higher = stronger binding
Target: Histone acetyltransferase KAT6A, winged helix 2, GST fusion (KAT6A, Homo sapiens, UniProt Q92794, residues 85-181)
Notes: 8-mer, flanks averaged, mean of 2 arrays, mostly near background
Construct (chain): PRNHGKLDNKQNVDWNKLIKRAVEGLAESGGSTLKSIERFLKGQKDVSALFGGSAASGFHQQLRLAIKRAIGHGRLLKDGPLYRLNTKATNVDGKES
Strand | E-score
CGCCCCGC | 0.337
ATGGGCTG | -0.0949
CAACGCAA | 0.114
AGGCGTAC | 0.0725
CTGTACAA | -0.00397
GCAGGATA | -0.0414
AGTGAATG | 0.0111
ATATCGAC | -0.0821
CCAACGCG | 0.129
GCGATACA | 0.0992
CTCGCCTA | 0.0648
GGTCAGGA | 0.102
AATTCGGG | 0.029

Series 5 — method: universal PBM; molecule type: double-stranded DNA, one strand shown; sample: in vitro; tested at: 600 nM; reading: higher = stronger binding
Target: Sal-like protein 4, full length isoform A (SALL4, Homo sapiens, UniProt Q9UJQ4, residues 1-1053)
UniProt Q9UJQ4, sequence (whole entry, looked up): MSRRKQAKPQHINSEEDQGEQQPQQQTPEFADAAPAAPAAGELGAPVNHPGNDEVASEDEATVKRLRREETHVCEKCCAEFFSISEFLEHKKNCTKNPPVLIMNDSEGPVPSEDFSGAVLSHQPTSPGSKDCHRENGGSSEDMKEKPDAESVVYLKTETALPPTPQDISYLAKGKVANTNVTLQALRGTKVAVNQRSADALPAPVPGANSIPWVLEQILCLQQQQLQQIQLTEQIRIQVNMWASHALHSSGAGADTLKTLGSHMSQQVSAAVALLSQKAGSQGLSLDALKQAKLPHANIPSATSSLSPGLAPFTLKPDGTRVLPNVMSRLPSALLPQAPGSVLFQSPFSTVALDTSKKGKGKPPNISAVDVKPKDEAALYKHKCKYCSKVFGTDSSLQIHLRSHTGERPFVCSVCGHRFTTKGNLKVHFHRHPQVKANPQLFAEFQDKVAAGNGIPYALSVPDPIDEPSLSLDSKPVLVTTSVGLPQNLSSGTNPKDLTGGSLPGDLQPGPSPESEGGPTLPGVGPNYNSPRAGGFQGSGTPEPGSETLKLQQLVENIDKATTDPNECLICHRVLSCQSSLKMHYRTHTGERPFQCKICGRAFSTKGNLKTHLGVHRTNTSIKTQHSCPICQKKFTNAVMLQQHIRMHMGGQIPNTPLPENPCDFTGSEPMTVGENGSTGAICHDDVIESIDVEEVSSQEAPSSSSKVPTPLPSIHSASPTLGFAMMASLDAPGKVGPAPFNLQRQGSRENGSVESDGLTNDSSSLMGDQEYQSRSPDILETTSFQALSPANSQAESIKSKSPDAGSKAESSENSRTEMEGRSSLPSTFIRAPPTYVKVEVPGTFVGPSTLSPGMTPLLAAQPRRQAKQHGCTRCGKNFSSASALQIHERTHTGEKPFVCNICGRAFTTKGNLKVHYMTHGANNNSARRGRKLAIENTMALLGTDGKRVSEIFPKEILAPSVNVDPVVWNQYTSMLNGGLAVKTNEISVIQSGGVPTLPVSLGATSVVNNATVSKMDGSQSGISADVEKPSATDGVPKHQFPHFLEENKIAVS
Notes: 8-mer, flanks averaged, mean of replicates
Strand | E-score
AAATTGAA | 0.277
AGAAGGAA | 0.0539
ACGCTTTA | 0.0554
CGATAGCA | -0.151
ACCCTCCT | -0.263
ACCGCCCT | -0.2
AGGGTTCA | -0.119
AGACGGAC | -0.241
GTTGGAAA | 0.0826
ACTTCATC | 0.13
CTTTCTTA | 0.0955
GGCTAACA | -0.218
GCCTACGC | -0.224
AGTAGTGA | 0.118
ACTGGGAA | -0.0854
AACCTCCA | -0.1
ACAAGATG | 0.1
ACGCTCAT | 0.0109
GAGGCATC | -0.154
GAGGTTCC | -0.164
GTAGCAGA | 0.00302
GCTAGGTA | 0.0125
ACAAACCT | 0.0664
AACGGTGC | -0.175
GTTGGCAA | 0.0189

Series 6 — method: DHFR PCA, deep sequencing; sample: yeast; added: (+)-ABA 17 µM; reference: wild-type fitted maximum; reading: higher = stronger binding
Target: ABI1, truncated, D143A, DHFR fusion (Arabidopsis thaliana)
Notes: methotrexate growth selection, single substitutions
Starting sequence: PYL1, truncated, DHFR fusion (Arabidopsis thaliana); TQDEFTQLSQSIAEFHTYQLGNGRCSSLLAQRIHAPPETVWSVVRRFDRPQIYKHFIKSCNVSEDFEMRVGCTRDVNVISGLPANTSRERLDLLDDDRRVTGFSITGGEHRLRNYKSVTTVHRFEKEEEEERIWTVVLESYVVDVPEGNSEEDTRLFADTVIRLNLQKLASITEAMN; partner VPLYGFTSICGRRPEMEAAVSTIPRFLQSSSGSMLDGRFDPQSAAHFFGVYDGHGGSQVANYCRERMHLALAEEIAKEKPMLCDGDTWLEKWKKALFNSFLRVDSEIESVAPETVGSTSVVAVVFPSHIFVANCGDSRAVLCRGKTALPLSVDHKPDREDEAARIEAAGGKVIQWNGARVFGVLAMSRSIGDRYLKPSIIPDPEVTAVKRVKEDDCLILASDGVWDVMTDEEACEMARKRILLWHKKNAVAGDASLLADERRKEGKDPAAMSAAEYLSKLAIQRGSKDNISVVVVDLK
Change | relative binding score [%]
S11W | 79.5
R74K | -4.56
F103D | -15.4
D3T | 82.8
R88Q | 87.7
T160A | 39.8
V145D | -2.38
F124Y | 98.3
G21D | 85
S59E | 84.5
G21M | 80.2
S140G | -4.44
F157M | 57

Single results of other studies
ARF20: ARF20 484-590 (Arabidopsis thaliana, UniProt Q9C7I9)
UniProt Q9C7I9, sequence (whole entry, looked up): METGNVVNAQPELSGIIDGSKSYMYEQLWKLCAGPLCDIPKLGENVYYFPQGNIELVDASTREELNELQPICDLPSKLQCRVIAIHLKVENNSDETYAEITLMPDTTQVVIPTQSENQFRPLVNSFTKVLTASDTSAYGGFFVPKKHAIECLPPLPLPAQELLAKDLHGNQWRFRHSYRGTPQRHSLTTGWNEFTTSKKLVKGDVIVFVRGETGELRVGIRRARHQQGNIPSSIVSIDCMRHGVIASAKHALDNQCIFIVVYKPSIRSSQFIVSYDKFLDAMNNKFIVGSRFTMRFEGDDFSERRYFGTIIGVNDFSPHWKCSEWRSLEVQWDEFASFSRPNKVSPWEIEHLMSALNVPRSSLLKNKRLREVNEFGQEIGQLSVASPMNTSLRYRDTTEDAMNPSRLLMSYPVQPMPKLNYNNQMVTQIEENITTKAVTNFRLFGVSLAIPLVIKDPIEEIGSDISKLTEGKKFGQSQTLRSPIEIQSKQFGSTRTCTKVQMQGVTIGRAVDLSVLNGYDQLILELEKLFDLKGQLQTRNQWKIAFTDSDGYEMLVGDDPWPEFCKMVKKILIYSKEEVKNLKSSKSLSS
B1: IAA29 (Arabidopsis thaliana, UniProt Q93WC4); chain MELDLGLSLSPHKSSKLGFNFDLNKHCAIEGAASCLGTEKLRFEATFGLGNVEENCYMPKQRLFALNGQPNEEDEDPLESESSIVYDDEEENSEVVGWPPVKTCMIKYGSYHHRHIRNHHHCPYHHRGRRITAMNNNISNPTTATVGSSSSSSISSRSSMYVKVKMDGVAIARKVDIKLFNSYESLTNSLITMFTEYEDCDREDTNYTFTFQGKEGDWLLRGDVTWKIFAESVHRISIIRDRPCAYTRCLF
B2: ARF13 (Arabidopsis thaliana, UniProt Q9FX25); chain MENNGEMNAQPELSVDITKTYMYEKLWNICAGPLCVLPKPGEKVYYFPQGHIELIENSTRDELDHIRPIFDLPSKLRCRVVAIDRKVDKNTDEVYAQISLMPDTTEVMTHNTTMDTRRPIVYFFSKILTASDVSLSGGLIIPKQYAIECFPPLDMSQPISTQNLVAKDLYGQEWSFKHVFRGTPQRHMFTSGGGWSVFATTKRLIVGDIFVLLRGENGELRFGIRRAKHQQGHIPSSVISANCMQHGVIASVVNAFKTKCMFNVVYKPSSSQFVISYDKFVDAMNNNYIVGSRFRMQFEGKDFSEKRYDGTIIGVNDMSPHWKDSEWRSLKVQWDELSPFLRPNQVSPWDIEHLIPSSDISQSSLKKKKHWLQLNEIGATLSNLWTCQEIGQRSMNSPISVPEFSYPNAIEDSKFLSGLLLNHSLLAIPNENYNSDQMIQPRKEDITTEATTSCLLFGVDLTKVSKSKDSICPIESCKKSLPQDKKFDQTQPLRSPKEVQSTEFNFTRSRIKVHMQGVAISRAVDLTAMHGYNQLIQKLEELFDLKDELRTRNQWEIVFTNNEGAEMLVGDDPWPEFCNMAKRIFICSKEEIKKMKLKNKFFQPESKALTSSDVPPNVTDN
Molecule | target or system | assay | system | scale | endpoint | value
B1 (IAA29) | ARF20 | two-hybrid | – | reference: out of 4 tests, higher = firmer interaction | positive tests | 0
STTRRRLFVENDS | human cyclin E2 | cyclin docking binding, deep mutational scanning | peptide, yeast cyclin E2-Cln2 system | direction not given | score relative, wild type, peptide | 0
B2 (ARF13) | ARF20 | two-hybrid | – | reference: out of 4 tests, higher = firmer interaction | positive tests | 0
